# Measurements of several laboratories.
# Every numbered part comes from another study and shows a few of its results, in no order.

# Series 1 — technique: protein binding microarray; form: double-stranded DNA, one strand shown; medium: in vitro; tested at: not given; reference: not given; direction: higher = stronger binding
# Target: Histone acetyltransferase KAT6A, both winged helices, GST fusion (KAT6A, Homo sapiens, UniProt Q92794, residues 1-181)
# Notes: 8-mer, flanks averaged, mean of 2 arrays, mostly near background
# Residues (chain): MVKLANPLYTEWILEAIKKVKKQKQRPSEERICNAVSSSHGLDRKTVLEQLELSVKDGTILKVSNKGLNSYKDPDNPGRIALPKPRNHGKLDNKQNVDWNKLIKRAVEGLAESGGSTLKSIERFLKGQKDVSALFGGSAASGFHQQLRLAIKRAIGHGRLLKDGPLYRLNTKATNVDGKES
Sequence,E-score
AGCCTGAC,-0.124
ATGGCTCC,-0.0391
GCGAAAAC,0.125
TAAATGGA,-0.0817
ATGCGCAA,0.265
CAAAGCCA,-0.261
AACGGGAG,0.134
CACTATGA,-0.163
AGAGCTAT,-0.133
AATGTCGT,-0.131
CCACATGG,-0.183
ATCTAATC,0.0347
ACTGCTGA,-0.0773
CAACGATG,-0.246
TATTAATA,0.196
GTCTGAGA,-0.0619
CCAGGTAG,-0.157
CGCATACA,0.21
ATACCAGA,-0.226
AGGGGAAT,-1.5e-05
GAACTCTA,-0.092
ACGAACGC,0.165
ACATTCAA,0.0213
AGAATCTG,-0.124
CACCAAGG,-0.107

# Series 2 — technique: RNA Bind-n-Seq; form: RNA; medium: in vitro; tested at: 365 nM; reference: no-protein control; direction: higher = stronger binding
# Target: RNA binding protein fox-1 homolog 2, RRM domain, GST-SBP tag (RBFOX2, Homo sapiens, UniProt O43251-10, residues 100-194)
# Notes: natural RNA segment, single round, ends assumed
# All sequences stand within: GGGAGUUCUACAGUCCGACGAUC … UGGAAUUCUCGGGUGCCAA
# Construct (chain): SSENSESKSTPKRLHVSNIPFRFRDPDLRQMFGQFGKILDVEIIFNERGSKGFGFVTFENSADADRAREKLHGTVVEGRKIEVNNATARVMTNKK
Sequence,RBNS enrichment (R)
CAAUUACAUUUGAAUUUAAAAAUAUUGAGCUCUUGAUUACAAUUUAAUACAUUGUAAAAAGUAUUAAAUCCUUUGAAACAUCUUUUGUUGCUUAUUUAGUUUUUGUUUCU,1.42
AAUCUGAAUCAUCACUUUAGGGUAUCCAUAGCCUAAGAAAUGUGUCAGAAGAUCUAAAGCCUUCCUUCAUAUUCCAGUUCUGUGAGUCCCUAACAGCAGGCAGCAUCCAU,1.11
GAGGGUCUUUGUAGGAGUUGCUCUUGCUGUGUAAAGCACUAUUGUCUUGGGGUUGAGCCCUAGGGCAGUUCUUGGUAGGUUCUGCUGGGCAGAACAUAUGGGUUAAAUCU,0.871
ACUUUGCUUUGUUUAUAAAUAAAUUAGUAGAUUGGAAAAACUAGUGUUAGGGAAAGAAAUCACAUGUUCAGAGCCUAAUUCAGUAGGAAGGGCUUUUCUCUACCCUGAAA,0.408
CAUGAUAAAGAUUAUUAUUUAAGAUAUACUUGUAUUUAUACCUCAGAUAUUCUUUCGGGUUUUGUACCUCAAGGUUCCCCUCCCCACAUUGUAAAUACACUUUAAGUGAA,0.455
UAUGUAUGUUUUAUGUAGUCCUCCUCCUGUACCUAUUGUAUAUUUUUUUUCUAAGGUUUAAGCACAUGCCUUUUGUAUUAUGCAGUAUAUAAUGGGUGUGCAGCCAUAGC,0.942
GGCUUGCCAGACACAGGAAUGGCCCCGAUUAUGUCACCAAUAUUGUCACAUGUGGGCCAAGAAUAGAGUCACAUGUGGUGGAAAGAUGAGGAGUUAGGCUGUAGAAGUGA,1.16
UUGAGCUACAUCUUGUUGAGCAAGGGGAGUGAAACCACAGAAACUGUUAAAUUGAACGUAAAUAACUUUGGAAAACAGUUUUGACACUAGAACAAGGUCGCUUCUCUUUU,0.376
GUUUUAUUGAGAGGGAGACAAAUGGAGCUCCAACUAUUUACUCACUUUUGCAUAUAUUAGGUUUCCAAUUCUAUUCCAUUCUCACAAUAUAAGCAUAUAUAUCCCCAUUC,1.86
UGUUGAUCGGUGCUUUCUGUAAAUACAUCUUAUCGCUUGGGUUGAGAGGGGCCUUAAGAAGGACAGUUCAUUGUAGGAAAGCAAUUCUGUACAUGAGUUAAGCAUACUUG,0.445
ACCCAUAUGAGAGAAAGGAUUCUCAUACUUAGAACUUUCCUAUGAAGAAAUGGUGGUAAACUUUCUCUACCUAGAAGUAGUGGAAAUUUCAAGGUCAUCUUAAAAAAGAU,0.395
UUAGCACUGGGGACACUUAAAGUCUCUGCUGUCUAUGGAGUUGAUUUGGAAAUACCUUCCUGGCCCCGCCCCUACCCCUUCUUUUUGGUUUUGACAUCACCCAUUUCCAA,0.292

# Series 3 — technique: RNAcompete; form: RNA; medium: in vitro; tested at: 20 nM; notes: 7-mer, probes averaged, single round; reference: mean of 7-mers; direction: higher = stronger binding
# Target: PABPC1L2, full length, GST fusion (mouse, UniProt A0ABA7IW68)
# Target sequence (chain): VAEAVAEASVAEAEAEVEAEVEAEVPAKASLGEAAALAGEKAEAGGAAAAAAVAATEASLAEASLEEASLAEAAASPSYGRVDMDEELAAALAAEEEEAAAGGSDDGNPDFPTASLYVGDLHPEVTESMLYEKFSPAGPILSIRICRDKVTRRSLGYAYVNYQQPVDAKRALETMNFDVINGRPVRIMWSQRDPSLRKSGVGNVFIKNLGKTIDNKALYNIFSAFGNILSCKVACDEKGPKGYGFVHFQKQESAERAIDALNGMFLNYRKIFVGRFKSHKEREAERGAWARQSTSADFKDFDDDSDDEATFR
Sequence,7-mer Z-score
AUAAGAA,0.483
UGGACAA,0.465
UUCCGUG,-0.338
CGACACU,-0.104
AUGGUUU,-0.358
UCCACGA,-0.249
UAGGGGA,0.155
AUCCGAG,-0.0844
AAGCUAG,0.187
AGGCCUA,-0.153
AGGCACG,0.28
GAACCAA,0.169
CCGCCAA,-0.325
UCAUCCG,-0.383
CUCCGUA,-0.269
AUGGAAC,0.202
AAUACGC,0.128
GUAUGGC,-0.0953
CGUCACG,-0.19
UUUAAAG,0.479
AAAGGUC,0.418
UCCAGUA,-0.0808

# Series 4 — technique: protein-binding microarray; form: double-stranded DNA, one strand shown; medium: in vitro; tested at: 250 nM; notes: 60-bp whole probe; with: salmon DNA 0.4 mg/ml; reference: random background probes; direction: higher = stronger binding; all sequences stand within: GCCTAGCAC … GTCTTGATTCGCTTGACGCTGCTG
# Target: Interferon regulatory factor 5, full length, phosphomimetic (IRF5, Homo sapiens, UniProt Q13568-2, residues 1-514, K96S/S451D/S453D/S456D/S462D)
Sequence,log fluorescence [z-score]
GACGAACTGAGTCTAGAGACGTGCTAG,-0.471
CACAGTCTGAGATCCAGAAGGTGCTAG,-0.489
TCAATTTCTGTTTTTGCACTGTGCTAG,4.88
CTCTAACTCAAGATTCCTCTCGTGCTA,0.3
TCACTTTCCTTCTTGATACTGTGCTAG,2.78
GACGGACTGGGATATCGGGACGTGCTA,-0.463
GACGGTATCGGTATCGGGATGTGCTAG,6.58
TCAAAATTTTTTTTCTAACTGTGCTAG,0.703
GGACGGCAGTGCACACAGTGGTGCTAG,-0.532
AAACGGATGATCTCTCTGGGCGTGCTA,-0.042
GACGGTTTTGGGACTGGGGACGTGCTA,0.214
TGTTTTTCATTGTTTTTCATCGTGCTA,2.84
TCAACTCTTTACATGGGACTGTGCTAG,-0.0509
CACGGTATCGGTTTCGGGACGTGCTAG,8.41
ACCTTTGTTTTTTTCTATATGTGCTAG,1.98
TCAAGAATGTCCTTTCTCACTGTGCTA,0.733
GACGGTATCGACAGTGGGGACGTGCTA,1.79
TCAGCATTGCTTCTATAACTGTGCTAG,0.152
AACTTTTTTTAATTGAGAAGGTGCTAG,0.464
GACGGACTGCTTTTTCTGACGTGCTAG,-0.129
GACGAACTGAGTCTCGATACGTGCTAG,0.559
